Measurements of several laboratories.
Lines come from different studies, so protocols differ. In brackets after ≈: the same amount, converted by molar mass.
Organism: Mycolicibacterium smegmatis

Compound | read-out | technique | strain | concentration | time | measurement | result
CCCCCCCCC/C=C\CCCc1cc(=O)c2ccccc2n1C | microbial growth |  | MC^2155 |  | 72 h | MIC | 28.3 µM
COc1ccc(-c2cc(=O)c3c(O)c(OC)c(O)cc3o2)cc1 |  |  | ATCC 1441 | concentration not given |  | activity | inactive
CC[C@H](C)[C@H](NC(=O)[C@@H]1CC(=O)N[C@@H](CO)C(=O)N[C@@H](CC(C)C)C(=O)NCC(=O)N[C@@H](CO)C(=O)N[C@@H](CO)C(=O)N2CCC[C@H]2C(=O)N[C@@H](Cc2ccc(O)cc2)C(=O)N[C@@H](CC(N)=O)C(=O)N1)C(=O)N[C@@H](CC(C)C)C(=O)NCC(=O)N[C@@H](Cc1ccc(O)cc1)C(=O)N1CCC[C@H]1C(=O)N[C@@H](C)C(=O)N[C@@H](CC(C)C)C(=O)N[C@H](C(=O)N[C@H](C(=O)N[C@H](C(=O)N[C@@H](Cc1ccc(O)cc1)C(=O)N1CCC[C@H]1C(=O)O)[C@@H](C)CC)C(C)C)[C@@H](C)CC |  |  |  |  |  | MIC | > 128 µg/mL
CC(=O)NC1C(OC2OC(CC(O)C3OC(n4ccc(=O)[nH]c4=O)C(O)C3O)C(O)C(O)C2NC(=O)COCc2ccc(N3CCC(Oc4ccc(OC(F)(F)F)cc4)CC3)cc2)OC(CO)C(O)C1O (centres unmarked) |  |  | ATCC 607 |  |  | MIC | > 50 µg/mL
CC[C@H](C)[C@H](NC(=O)[C@H](C)NC(=O)[C@H](C)NC(=O)[C@H](Cc1ccccc1)NC(=O)[C@H](C)NC(=O)CNC(=O)[C@H](Cc1ccccc1)NC(=O)[C@@H](N)Cc1ccccc1)C(=O)N[C@@H](C)C(=O)N[C@@H](CO)C(=O)N[C@@H](CC(C)C)C(=O)N[C@H](C(=O)N[C@H](C(=O)N1CCC[C@H]1C(=O)N[C@@H](CCCCN)C(=O)N[C@@H](CC(C)C)C(=O)N[C@H](C(=O)N[C@@H](CCC(=O)O)C(=O)N[C@@H](CCCCN)C(=O)N[C@H](C(=O)N[C@@H](CCCCN)C(=O)N[C@@H](CCC(N)=O)C(=O)N[C@@H](C)C(=O)N[C@@H](CCCNC(=N)N)C(N)=O)[C@@H](C)CC)[C@@H](C)CC)[C@@H](C)CC)C(C)C |  | ATP luminescence | ATCC 607 |  | 48 h | MIC | > 50 µM
N#Cc1c2nc3ccccc3nc2n2ccc(NC(=O)c3ccccc3Cl)cc12 |  |  | pTet-ClpP1P2 chromosomal |  |  | MIC50 | > 100 µM
CC(=O)NC1C(OC2OC(CC(O)C3OC(n4ccc(=O)[nH]c4=O)C(O)C3O)C(O)C(O)C2NC(=O)C=CCCCCCCCCCC(C)C)OC(CO)C(O)C1O (centres unmarked) |  |  | ATCC 607 |  |  | MIC | > 50 µg/mL
CC[C@H](C)[C@H](NC(=O)[C@H](CCC(N)=O)NC(=O)[C@@H]1CCCN1C(=O)[C@@H](NC(=O)[C@@H](NC(=O)[C@H](Cc1ccc(O)cc1)NC(=O)[C@H](C)NC(=O)[C@H](C)NC(=O)[C@H](CC(C)C)NC(=O)[C@H](CCCCN)NC(=O)[C@H](C)NC(=O)[C@H](CC(C)C)NC(=O)[C@H](CC(C)C)NC(=O)CNC(=O)[C@@H](NC(=O)[C@@H](N)Cc1ccccc1)C(C)C)C(C)C)[C@@H](C)CC)C(=O)N[C@H](C(=O)N[C@@H](CCCCN)C(=O)N[C@@H](CCCNC(=N)N)C(=O)N[C@@H](Cc1ccccc1)C(=O)N[C@@H](CCC(N)=O)C(=O)N[C@@H](CCCCN)C(=O)N[C@@H](CCCCN)C(=O)N[C@@H](CCCCN)C(N)=O)C(C)C |  | ATP luminescence | ATCC 607 |  | 48 h | MIC | 25 to 50 µM
CC(C)=CCC/C(C)=C/CNCCOC1C2CC3CC(C2)CC1C3 (centres unmarked) | microbial growth |  |  |  |  | IC50 | 1.6 µg/mL (≈ 4.83 µM)
CCCCCCCC/C=C\CCCCc1cc(=O)c2ccccc2n1C | microbial growth |  | MC^2155 |  | 72 h | MIC | 28.3 µM
CC[C@H](C)[C@H](NC(=O)CNC(=O)[C@@H](NC(=O)[C@@H](N)Cc1ccccc1)[C@@H](C)CC)C(=O)N[C@@H](CCSC)C(=O)N[C@@H](C)C(=O)N[C@H](C(=O)N[C@@H](CC(C)C)C(=O)N[C@@H](C)C(=O)N[C@@H](CO)C(=O)N[C@@H](CC(C)C)C(=O)N[C@H](C(=O)N[C@H](C(=O)N1CCC[C@H]1C(=O)N[C@@H](CCCCN)C(=O)N[C@@H](CC(C)C)C(=O)N[C@H](C(=O)N[C@@H](CCC(=O)O)C(=O)N[C@@H](CCCCN)C(=O)N[C@H](C(=O)N[C@@H](CCCCN)C(=O)N[C@@H](CCC(N)=O)C(=O)N[C@@H](C)C(=O)N[C@@H](CCCNC(=N)N)C(N)=O)[C@@H](C)CC)[C@@H](C)CC)[C@@H](C)CC)C(C)C)[C@@H](C)O |  | ATP luminescence | ATCC 607 |  | 48 h | MIC | > 50 µM

For quick reference, copied from above:
Compound | read-out | technique | strain | concentration | time | measurement | result
CC(=O)NC1C(OC2OC(CC(O)C3OC(n4ccc(=O)[nH]c4=O)C(O)C3O)C(O)C(O)C2NC(=O)C=CCCCCCCCCCC(C)C)OC(CO)C(O)C1O (centres unmarked) |  |  | ATCC 607 |  |  | MIC | > 50 µg/mL
